Experimental data collected from several papers.
Compare with care: the assays were run in different laboratories.
Target: Serine/threonine-protein kinase PLK3 (PLK3, Homo sapiens, UniProt Q9H4B4)
Chain of UniProt Q9H4B4 (whole entry, looked up): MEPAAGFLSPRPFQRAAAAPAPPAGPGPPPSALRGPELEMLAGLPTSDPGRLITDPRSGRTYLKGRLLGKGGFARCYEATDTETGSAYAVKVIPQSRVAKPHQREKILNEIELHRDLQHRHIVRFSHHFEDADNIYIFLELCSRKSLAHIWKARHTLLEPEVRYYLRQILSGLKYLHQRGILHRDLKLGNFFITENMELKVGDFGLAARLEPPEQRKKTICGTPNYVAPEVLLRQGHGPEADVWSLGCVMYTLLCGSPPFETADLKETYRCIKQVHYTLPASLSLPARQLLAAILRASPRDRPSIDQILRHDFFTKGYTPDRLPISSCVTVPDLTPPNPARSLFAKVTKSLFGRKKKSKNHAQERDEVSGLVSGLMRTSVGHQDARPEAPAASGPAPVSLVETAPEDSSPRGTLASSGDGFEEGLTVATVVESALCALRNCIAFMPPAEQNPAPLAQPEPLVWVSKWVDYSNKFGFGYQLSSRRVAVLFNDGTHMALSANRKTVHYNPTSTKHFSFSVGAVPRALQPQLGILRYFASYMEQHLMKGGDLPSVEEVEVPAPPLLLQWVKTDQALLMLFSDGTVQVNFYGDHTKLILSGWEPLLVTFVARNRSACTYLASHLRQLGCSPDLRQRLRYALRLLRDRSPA

For `C[C@H](NCc1ccc(-c2ccc(C(F)(F)F)cc2)cc1)C(N)=O`, the inhibition was 13% (cell-free assay, competition with immobilised ligand; 1 µM).
`CN(/N=C/c1ccccc1C(=O)O)c1nc(-c2ccccc2Cl)cs1` gave an inhibition of -10.9% (enzyme activity, inhibitor; 1 µM).
With `O=C1NC(=O)c2c1c1cc(F)c[n+]3c1c1c2c2cc(O)ccc2[n]1[Ru-4]312([N]=C=S)[S+]3CC[S+]1CC[S+]2CC3` (centres unmarked) the remaining activity was 102% (enzyme activity; 100 nM, human enzyme, with: 10 µM ATP; baseline: untreated).
With `CCOC(=O)[C@@H]1Cc2c(cc([N+](=O)[O-])cc2[N+](=O)[O-])[C@H](O)[C@]12C(=O)Nc1ccc(Br)cc12` the remaining binding was 55% (binding, competition with immobilised ligand; 0.1 µM).
For `Nc1ccc(/C=C/C(=O)N2CCc3c(oc4c(-c5ccc(F)cc5)cc(-c5ccc(C(=O)N6CCC(F)(F)CC6)cn5)cc34)C2)cn1`, the remaining binding was 94% (binding, competition with immobilised ligand; 1 µM).
The inhibition of `CC(C)[C@H]1NC(=O)C[C@H]2/C=C/CCSSC[C@@H](NC1=O)C(=O)N[C@H](Cc1cccc3ccccc13)C(=O)NCC(=O)O2` is reported as -8.4% (enzyme activity, inhibitor; 10 µM).
`CS(C)(=O)=Nc1ccc(-c2ccc(-c3nc4cc(O[C@@H]5CO[C@H]6[C@@H]5OC[C@H]6O)[nH]c4cc3F)cc2)cc1` has an inhibition of -6% (enzyme activity, inhibitor; 10 µM).
With `O=C(O)c1ccccc1/C=N/Nc1nc(-c2ccccc2Cl)cs1` the inhibition was -3.03% (enzyme activity, inhibitor; 1 µM).
